Measured values gathered from unrelated publications.
Each line is one published result; not all experiments were run side by side. Several values in a cell are separate wells, animals, samples, runs or records. ± gives the spread as reported.
MAOB: Amine oxidase [flavin-containing] B (MAOB, Homo sapiens, UniProt P27338)

Chains of the proteins cited; added tags and fusions are not shown. Lines headed by an entry give the natural chain unless they say otherwise; changes in a name come on top. Residues count along the entry.
UniProt P27338, whole entry: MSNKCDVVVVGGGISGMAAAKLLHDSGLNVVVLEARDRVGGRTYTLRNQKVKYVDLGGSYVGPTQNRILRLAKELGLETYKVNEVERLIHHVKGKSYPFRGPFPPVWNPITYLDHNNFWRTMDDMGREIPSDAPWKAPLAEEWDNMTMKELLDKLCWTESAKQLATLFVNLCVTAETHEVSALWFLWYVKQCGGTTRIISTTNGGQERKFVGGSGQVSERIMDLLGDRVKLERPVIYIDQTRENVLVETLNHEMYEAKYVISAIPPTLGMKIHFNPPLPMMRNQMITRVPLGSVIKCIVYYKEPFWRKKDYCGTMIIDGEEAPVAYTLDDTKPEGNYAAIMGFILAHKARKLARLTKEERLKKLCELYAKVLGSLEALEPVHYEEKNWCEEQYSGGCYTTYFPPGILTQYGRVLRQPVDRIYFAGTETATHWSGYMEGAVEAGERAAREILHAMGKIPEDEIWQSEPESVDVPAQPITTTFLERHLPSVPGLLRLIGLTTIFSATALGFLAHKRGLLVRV
UniProt O95931, 11-69 limits assumed: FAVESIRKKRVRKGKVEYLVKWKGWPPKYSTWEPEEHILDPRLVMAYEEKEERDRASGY
UniProt P41145, whole entry: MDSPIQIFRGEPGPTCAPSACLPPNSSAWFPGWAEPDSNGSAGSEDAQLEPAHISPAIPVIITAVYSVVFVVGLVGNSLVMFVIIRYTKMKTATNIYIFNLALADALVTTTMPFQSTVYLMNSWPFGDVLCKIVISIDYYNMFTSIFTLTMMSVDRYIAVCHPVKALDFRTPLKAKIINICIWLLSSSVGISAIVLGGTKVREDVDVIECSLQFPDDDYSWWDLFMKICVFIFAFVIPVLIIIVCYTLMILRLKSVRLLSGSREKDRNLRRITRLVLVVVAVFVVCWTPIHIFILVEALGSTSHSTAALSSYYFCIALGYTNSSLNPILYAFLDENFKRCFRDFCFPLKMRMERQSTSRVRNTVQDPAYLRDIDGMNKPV
UniProt P03406, 2-206 limits assumed: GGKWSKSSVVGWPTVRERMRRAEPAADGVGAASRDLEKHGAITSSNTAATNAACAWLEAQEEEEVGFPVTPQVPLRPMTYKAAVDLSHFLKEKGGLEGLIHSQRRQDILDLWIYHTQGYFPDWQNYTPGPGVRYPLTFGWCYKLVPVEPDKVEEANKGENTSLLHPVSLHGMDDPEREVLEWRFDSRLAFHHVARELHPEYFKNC
UniProt P22307, 425-547 limits assumed: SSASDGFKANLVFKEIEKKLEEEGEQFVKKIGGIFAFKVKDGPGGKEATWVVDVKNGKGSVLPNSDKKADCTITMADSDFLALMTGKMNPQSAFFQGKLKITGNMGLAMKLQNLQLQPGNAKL
UniProt P41146, whole entry: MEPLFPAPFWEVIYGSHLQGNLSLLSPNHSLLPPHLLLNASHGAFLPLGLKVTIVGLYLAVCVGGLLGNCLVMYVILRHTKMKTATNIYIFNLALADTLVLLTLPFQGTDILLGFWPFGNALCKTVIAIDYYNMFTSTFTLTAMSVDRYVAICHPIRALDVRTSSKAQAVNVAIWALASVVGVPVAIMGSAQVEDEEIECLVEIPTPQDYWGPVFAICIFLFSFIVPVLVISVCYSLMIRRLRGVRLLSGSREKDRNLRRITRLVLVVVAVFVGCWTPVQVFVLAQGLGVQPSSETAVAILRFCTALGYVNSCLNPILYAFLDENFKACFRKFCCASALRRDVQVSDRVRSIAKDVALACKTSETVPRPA

SMILES	target	test	system	setting	how to read	quantity	value
O=C(c1ccc(F)cc1F)N1CCN(c2ccc3nncn3n2)CC1	MAOB	enzyme activity, inhibitor, fluorescence	–	recombinant human enzyme, together with: kynuramine 20 µM	–	IC50	83 µM and 83.1 µM
COc1cccc(C(=O)N2CCN(C(=O)COc3cccc(C)c3)CC2)c1OC	Chromobox protein homolog 7 (Homo sapiens, UniProt O95931)	H3K27me3 peptide binding, inhibitor, fluorescence anisotropy	–	–	–	Ki	43 µM
C=CC1=C(C)C2=Cc3c(C=C)c(C)c4[n]3[Fe]([Cl])[n]3c(c(C)c(CCC(=O)O)c3=CC3=NC(=C4)C(C)=C3CCC(=O)O)=CC1=N2	Heme-degrading monooxygenase HmoB (Bacillus anthracis, UniProt A0A6H3AGK1)	–	–	–	–	Kd	12.6 ± 0.8 µM
CCC1C(=O)N(C2CCN([C@H]3CC[C@@H]4CCCc5cccc3c54)CC2)c2ccccc21 (relative stereo)	OPRK1 (Homo sapiens, UniProt P41145)	radioligand displacement	–	together with: tritiated U-69593	–	Ki	0.152 ± 0.0257 µM
CC[C@H]1OC(=O)[C@H](C)[C@@H](O)[C@@H](C)C[C@@H](C)C(=O)/C=C/[C@H]1C	Protein Nef (Human immunodeficiency virus 1, UniProt P03406)	HLA-A2 downmodulation, inhibitor, flow cytometry	HIV-transduced CD4 T cells, HIV-1	24 h	up to 1000 nM	IC50	< 1 µM
Fc1ccc(CNc2ncnc3ccc(F)cc23)cc1	N/L (Lymphocytic choriomeningitis virus, UniProt P09992+P14240)	viral replication, Gaussia luciferase reporter	–	–	–	EC50	8.63 µM
Cc1ccc2c(c1)-c1c(ssc1=S)C(C)(C)N2C(=O)CC(C)C	Sterol carrier protein 2 (Homo sapiens, UniProt P22307)	binding, fluorescence	–	together with: NBD-stearic acid 500 nM	–	Ki	2.9 ± 0.2 µM
O=C(c1ccc(Cl)cc1)N1CCN(c2ccc3nncn3n2)CC1	MAOB	enzyme activity, inhibitor, fluorescence	–	recombinant human enzyme, together with: kynuramine 20 µM	–	IC50	97 µM
O=C1Cc2ccccc2N1C1CCN([C@@H]2CC[C@@H]3CCCc4cccc2c43)CC1	Nociceptin receptor (OPRL1, Homo sapiens, UniProt P41146)	agonist	cell membranes	–	–	EC50	0.0527 ± 0.0046 µM
